Assay results gathered from unrelated publications.
A part holds a random share of what one study measured. Positions count from the first letter of the parent shown.

Sample 1
Target: Histone acetyltransferase KAT6A, winged helix 1, GST fusion (KAT6A, Homo sapiens, UniProt Q92794, residues 1-85)
Method: protein binding microarray
Form: double-stranded DNA, one strand shown
Medium: in vitro
Concentration: not given
Setting: 8-mer, flanks averaged, mean of 2 arrays, mostly near background
Baseline: not given
Reading: higher = stronger binding
Target sequence (chain): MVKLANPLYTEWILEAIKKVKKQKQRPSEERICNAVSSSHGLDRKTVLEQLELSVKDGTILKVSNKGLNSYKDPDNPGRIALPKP
Oligonucleotide	E-score
GGAAACCA	-0.00189
ATATATCC	-0.00899
CCGAACAG	0.0518
AATTTGCG	0.0536
CATTAGCC	0.000915
ATCCGTTA	0.0962
CTCCGTCC	0.108
CTTCTAGA	-0.0894
CCGGTGGA	0.191
ATAGCATC	-0.0839
ACATTTCA	-0.293
ACTTGGCG	0.0189
ACAGTTAC	0.000225
TATTTAGA	-0.0739
CAACGGCC	0.28
CTTGGCGA	-0.0201
CTAGCGCA	0.194

Sample 2
Target: PABPC1L2, full length, GST fusion (mouse, UniProt A0ABA7IW68)
Method: RNAcompete
Form: RNA
Medium: in vitro
Concentration: 20 nM
Setting: 7-mer, probes averaged, single round
Baseline: mean of 7-mers
Reading: higher = stronger binding
Target sequence (chain): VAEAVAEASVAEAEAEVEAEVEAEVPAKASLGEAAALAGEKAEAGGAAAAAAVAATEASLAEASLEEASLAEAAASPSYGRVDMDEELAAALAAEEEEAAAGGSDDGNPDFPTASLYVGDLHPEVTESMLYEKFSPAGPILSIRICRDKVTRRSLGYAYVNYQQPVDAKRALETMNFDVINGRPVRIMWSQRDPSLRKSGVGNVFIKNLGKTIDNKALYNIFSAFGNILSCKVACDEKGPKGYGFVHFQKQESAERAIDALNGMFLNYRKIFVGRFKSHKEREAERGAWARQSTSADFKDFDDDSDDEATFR
Oligonucleotide	7-mer Z-score
CCACUGG	-0.208
CCUAUAU	-0.275
ACACCCU	-0.195
AGGUGAC	0.117
CAUUGUA	-0.175
CUGCGGG	0.187
UAGGGCC	0.0841
GUCUUGC	-0.347
AUAAUUC	0.00254
AAACGCG	1.05
UGUGGAC	0.238
UCCUCCA	-0.307
AGCUUGU	-0.162
GCGGGAG	0.253
CGGUUCG	-0.257
GUCUCAU	-0.347
ACGAUCA	-0.0337
CUACCUU	-0.325
UAAUGAC	-0.079
UUCGCAA	-0.173
ACUUAUU	-0.199
UGUUCUG	-0.474
GGAAGAG	0.267
GACUCUG	-0.22

Sample 3
Target: Interferon regulatory factor 5, full length, phosphomimetic (IRF5, Homo sapiens, UniProt Q13568-2, residues 1-514, S451D/S453D/S456D/S462D)
Method: protein-binding microarray
Form: double-stranded DNA, one strand shown
Medium: in vitro
Concentration: 940 nM top
Setting: 60-bp whole probe
With: salmon DNA 0.4 mg/ml
Baseline: random background probes
Reading: higher = stronger binding
Constant ends, left off below: GCCTAGCAC … GTCTTGATTCGCTTGACGCTGCTG
Oligonucleotide	fitted relative affinity [z-score]
GACGGACTGGACTGTCGGGACGTGCTA	-0.585
TTAGATATCAATCTCGATTAGTGCTAG	0.999
TTAGGTTTCGACTTTCGGATAGTGCTA	8.62
GACGGTATCCTTGTCCTGACGTGCTAG	0.171
GACGATTTCGGGACTGGACACGTGCTA	0.305
ACAAATGGCCAACAAACATTGTGCTAG	-0.394
TATGTTCCCTATTTAAGACCGTGCTAG	0.836
GACGGACTGGGACTGTGGACGTGCTAG	-0.592
TCAACTTTGAATTAGAAACTGTGCTAG	-0.177
TTAGCTATCGGTATCGGTTAGTGCTAG	5.02
TCATTTCTGAATGCTCCCACTGTGCTA	0.277
TACGAACTGGGGACTGGAGACGTGCTA	-0.0226
GACGGTATCGACACTGGAGACGTGCTA	3.72
TCATGCTTCTGTATGGGACTGTGCTAG	-0.229
GGTCTTTCCGATTAGTCCCCGTGCTAG	0.966
CTAATTTCCATTTTCTAAATGTGCTAG	1.26
GACCGTCTCCTTTTCCTGACGTGCTAG	0.652
GACGGTCTCCGTATCGGGACGTGCTAG	0.256
TCAATTTTCACGGTGGGACTGTGCTAG	0.208
TTAGATCTGGGGTATCGATTAGTGCTA	2.8
TTAGGCCTCGGTATCGGTTAGTGCTAG	4.23

Sample 4
Target: Phosphate system positive regulatory protein PHO4, full length, GST-tagged (PHO4, Saccharomyces cerevisiae, UniProt P07270, residues 1-312)
Method: competition protein-binding microarray
Form: double-stranded DNA, one strand shown
Medium: in vitro
Concentration: 2 µM
Setting: whole 60-bp probe, lowest competitor level
With: Cbf1 competitor, 0.05 µM
Reading: higher = stronger binding
Constant ends, left off below: … GTCTTGATTCGCTTGACGCTGCTG
Target sequence (chain): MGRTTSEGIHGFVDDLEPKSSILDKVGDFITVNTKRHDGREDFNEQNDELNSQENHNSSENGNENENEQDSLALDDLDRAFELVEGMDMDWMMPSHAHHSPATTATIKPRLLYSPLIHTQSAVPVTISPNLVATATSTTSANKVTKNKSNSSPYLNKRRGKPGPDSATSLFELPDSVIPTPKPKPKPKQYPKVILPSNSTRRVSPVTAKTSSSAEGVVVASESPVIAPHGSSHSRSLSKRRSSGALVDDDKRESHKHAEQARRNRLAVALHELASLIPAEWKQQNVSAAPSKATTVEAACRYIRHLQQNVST
Oligonucleotide	fluorescence intensity [a.u.]
CATACCCAACCTTGTCACCACACTTAAGATATTTGT	5370
CTAACGAAGGTTTTTCACGTGCTCTACAAGCCAAGT	13900
CGGGGTTAAGTTTGGGATGTGGGTGGCTTGCAGCAG	4860
TGCCGGTAATGCAAGCTCGTGCTTTCGCGATCGTAG	10800
GTCTTGTCTCATTGTCACCCGACTTTCCCCACTTCA	4720
TAACACATAACCCATCACGTGTTGGTCTTGATAGTC	16600
CATGCTGTTTTAGCGCGCGTGATGGGGACATAGATG	10100
CTCTTGGTTTACTGTCACATGGAGAACCTTTACTGG	8810
TCAGAGGTATTCTCTCATGTGGTGAAGTCCATCAAT	6910
AGAAACAACACTACTGCTGTGACAGTTCAAATCGGT	3950
CTTTCCCGATCTTGTCACCATACTTTAGCACATTTG	4090
TAACCATTTCTTCCTGTCGTGGGTAGTTCATACCAT	7170
CATACCCAACCTTGCCGAGTGGGTGAAGATATTTGT	4680
CGGCTACTGAATCTTTACATTACTTGAGCTGAGAAG	2900
CTTCTGTAAATTTGTAGTGTGGGTGGACGCGCCCCG	5290
TCGACGGCGAAGAAGCACATGCCTTCACCGTCCGCA	9510
CGTCCTAGTGATTGGTAAGTGGGTGCCATGAGGAAG	7190
CCATCTCTACTGACTCACATGGCCTGGAACGCAAGT	7450

Sample 5
Target: RNA binding protein fox-1 homolog 2, RRM domain, GST-SBP tag (RBFOX2, Homo sapiens, UniProt O43251-10, residues 100-194)
Method: RNA Bind-n-Seq
Form: RNA
Medium: in vitro
Concentration: 365 nM
Setting: natural RNA segment, single round, ends assumed
Baseline: no-protein control
Reading: higher = stronger binding
Constant ends, left off below: GGGAGUUCUACAGUCCGACGAUC … UGGAAUUCUCGGGUGCCAA
Target sequence (chain): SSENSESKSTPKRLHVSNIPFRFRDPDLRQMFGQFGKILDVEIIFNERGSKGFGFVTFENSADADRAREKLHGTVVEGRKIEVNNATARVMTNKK
Oligonucleotide	RBNS enrichment (R)
CACUAUUUUUUUUUUUAAAUCAUUUAUCCUAGAGAAGGACUCUGAUCCUUGCUUUCCUAGGUAAAUUAUGCUGGAGUGCUUCCAGUACUAAGGCCUCUUGAUUCUUUCCC	0.572
AAAUUCAGUAAUGCAGUUUUUAAAAACCUGUAUCUGACCCACUUUGUAAUUUUUGCUCCAAUAUCCAUUCUGUAGACUUUUGAAAAAAAAGUUUUUAAUUUGAUGCCCAA	1.03
UUUGUACAUGAAUGAUUCAAAAUCCAACCCACCAAAUGGUUACCCUGUAUUCCAGAAACUCACUUGAUUCUGUAUUGGUAAAUGCCUGGCUUCUUCACCAACUCCAUAGG	25
GCAGUCAGCCCCUUCAAGUCUGGACAGCCCUGGAGUUCUGGUCCCCUCUCCUAGCACUGUACCUUUACCCAGCGAGUCCCCACACUGUGGUCUUCUUGCACAGUGUGUGG	0.418
CAUUUCUUGAACAGUCUGUGAAUAUGCCUGUGUGGACGCUGUAUCCUGCUGCUGUCCCUCUCCUGGUCUCUCACACUGCAUGGCCUCCUAUCACUGUGAAUUGUGGCCUG	2.07
CCAAGGUGCUAUGGCGCAAAGGGCCCUUCUGCAGAAACCCAGUUUUCCUACCUGGGCUGGUUUCUUUUCUAUAGGCUGUCUUGUCUUUCUUAUGCUAACCACUAUUUUAA	0.487
CAGACACUCUUUUAGACCAGCUGGACACUCAGCUCAAUGUCACUGAGAAUGAAUGUCAGAACUACAGACGCUGUUUGGAGAUCCUAGAGCAGAUGAAUGAGGAUGACAGU	0.635
CACAAUGUUCAAAUGGCGGCUGACUCUACAGCAUUCUGUAGGUCCCUGCCCCCCUAGCUGAAGGGGUGUGCCAUACUACCUUAAAUGCAAACACUAGAUAUGCAAAACUG	0.299
AACACCCCUUGGUGCAGGCCUCCUGGCACUCGCCUGGCAUCUUGGUGUCCGGGUGCUCAGCUCCUGGGUCCCAGGGCAGUGGGACAGCUCCCAGGCUCUUCUCAUCAGAG	0.264
UGCGCCCCUUCUGAGUAGUCUUUGACAAUGUGUUGUGUUCCCCGAUGUCGACUUGAUUUCCUUUUAGUAGCAUCUCUCUCUUCCAUGUCUUGAUGUUAUGCAGGAAGUAC	1.03
CCCACUCUGUAAGUGUUUUGGAGUCUGACUAUUGCAGACACCCUCUGGCUGGGCUGCUCAGGGUGACAUCAUAGCACCUCUGGGAAUGCUGCCGAAGAACCCCAUGGUCC	0.277
CCACCUCAGGCAGCUGUUACUCAGCCUCCGUUACCUGCUGUAGACUGUCAGCAUCCUCACACAGCGCCUCCAUUACAUGGAAAGGGCUGGCUGCAGUCUCAACCAGGAAU	0.308

Sample 6
Target: CCNB1, cyclin fold, Cln2 fusion (human)
Method: yeast growth competition, sequencing
Medium: yeast
Setting: weak parent motif
Baseline: not given
Reading: higher = stronger binding
Parent: SLBP docking peptide (human); ARYKRKLLINDFG
Change	normalised enrichment score
L8P	0.711
L7A	-0.151
K6V	0.675
L7F	0.908
A1S	0.627
D11H	0.809
D11V	0.408
K6Q	0.917
D11L	0.854
R5C	1.32
F12P	0.637
K4A	0.303
K6F	0.509
Y3L	1.37
I9Y	0.572
L7Y	1.18
F12A	0.465
F12K	0.915

Other studies, line by line
Molecule	target	assay	test system	setting	scale	measurement	result
PhoQ, residues 284 288 289 292 302 303 NLALSC	PhoP, residues 12 14 15 18 19 AQALL (Escherichia coli, UniProt P23836)	Sort-seq, item: YFP reporter	E. coli	PhoQ-PhoP variant library, with: 10 µM Mg2+	baseline: high Mg2+ state, higher = stronger signaling	fold induction	1.94

For quick reference, copied from above (sample 6):
Change	normalised enrichment score
R5C	1.32
F12P	0.637
K4A	0.303
K6F	0.509
Y3L	1.37
I9Y	0.572
L7Y	1.18
